Measured values gathered from unrelated publications.
Parts stem from different laboratories: compare values within a part only. Positions count from the first letter of the parent shown.
Chain of UniProt Q99640 (whole entry, looked up): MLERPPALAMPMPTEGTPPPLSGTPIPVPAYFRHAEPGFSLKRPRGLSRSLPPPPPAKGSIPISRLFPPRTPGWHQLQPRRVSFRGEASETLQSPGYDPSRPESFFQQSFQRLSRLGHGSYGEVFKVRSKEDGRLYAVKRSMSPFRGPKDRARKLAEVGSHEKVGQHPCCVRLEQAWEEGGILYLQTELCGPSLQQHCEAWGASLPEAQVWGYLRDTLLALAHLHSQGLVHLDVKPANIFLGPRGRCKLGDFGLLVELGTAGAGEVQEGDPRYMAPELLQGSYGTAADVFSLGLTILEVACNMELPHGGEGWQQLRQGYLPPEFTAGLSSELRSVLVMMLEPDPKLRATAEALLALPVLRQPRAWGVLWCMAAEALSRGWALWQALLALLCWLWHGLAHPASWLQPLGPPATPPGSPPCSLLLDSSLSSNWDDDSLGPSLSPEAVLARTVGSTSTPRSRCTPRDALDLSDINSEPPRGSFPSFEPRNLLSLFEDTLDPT

Series 1
Target: Eukaryotic initiation factor 4A-I (EIF4A1, Homo sapiens, UniProt P60842, residues 1-406, full length assumed)
Chain of UniProt P60842 (whole entry, looked up): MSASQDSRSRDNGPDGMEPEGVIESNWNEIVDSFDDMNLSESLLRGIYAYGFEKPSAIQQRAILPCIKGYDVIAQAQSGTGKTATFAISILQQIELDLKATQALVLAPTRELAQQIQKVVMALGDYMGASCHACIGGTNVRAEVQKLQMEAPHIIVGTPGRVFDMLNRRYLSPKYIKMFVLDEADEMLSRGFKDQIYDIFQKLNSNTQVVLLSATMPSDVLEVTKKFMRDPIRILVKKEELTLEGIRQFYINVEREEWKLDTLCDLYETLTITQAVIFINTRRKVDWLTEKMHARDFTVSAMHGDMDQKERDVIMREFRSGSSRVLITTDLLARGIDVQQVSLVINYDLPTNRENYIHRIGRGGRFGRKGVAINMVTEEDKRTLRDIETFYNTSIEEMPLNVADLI
Technique: RNA Bind-n-Seq
Form: RNA
Medium: in vitro
Tested at: 15 pmol
Notes: 4-mer, random 30-nt RNA, single round
With: 3 µM DMDA-PatA, 2 mM AMP-PNP
Reference: input library
Reading: higher = stronger binding
| Sequence | 4-mer enrichment [fold] |
| --- | --- |
| ACGG | 0.787 |
| GAGG | 1.02 |
| CACU | 0.569 |
| UCGU | 1.18 |
| GCGC | 1.01 |
| CGGU | 1.19 |
| GCCC | 0.636 |
| UAGU | 1.47 |

Series 2
Target: BATF3, bZIP domain (human)
Technique: DHFR protein complementation
Medium: yeast
Notes: single substitutions, most at no-binding floor
Reference: wild-type JUN-FOS pair
Reading: higher = stronger binding
Starting sequence: JUN, bZIP domain (human); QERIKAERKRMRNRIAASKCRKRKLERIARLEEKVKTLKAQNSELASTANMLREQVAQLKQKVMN; partner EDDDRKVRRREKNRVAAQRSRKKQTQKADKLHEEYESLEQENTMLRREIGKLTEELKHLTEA
| Change | binding fitness |
| --- | --- |
| S47P | -0.26 natural log |
| L38T | 0.089 natural log |
| N42S | -0.191 natural log |
| V56T | 0.0264 natural log |
| T37C | 0.248 natural log |
| A40C | 0.163 natural log |
| N42D | -1 natural log |
| L45M | 0.211 natural log |

Further values, each from its own experiment
| SMILES | target or system | test | test system | conditions | measurement | result |
| --- | --- | --- | --- | --- | --- | --- |
| Nc1cnc(N2CCc3cc(S(=O)(=O)Nc4c(F)cc(Cl)cc4F)cc(N4CCCC4=O)c32)nc1 | Epidermal growth factor receptor (EGFR, Homo sapiens, UniProt P00533, del747-750/T751S) | cell-free assay, competition with immobilised ligand |  | 1 µM | remaining binding | 100% |
| CCC[C@@H]1NC(=O)CSC[C@@H](C(=O)OCC)N(C)C(=O)[C@H](CC(C)C)NC(=O)[C@H](C)N(C)C(=O)[C@H](CC(C)C)NC(=O)[C@H](C)N(C)C(=O)[C@@H]2CCCN2C(=O)[C@@H](CC(C)C)NC(=O)CN(CCC)C1=O |  |  | hydrocarbon/water |  | logD | 0.583 |
| CCCOc1ccc([C@@H]2[C@@H](C(=O)O)[C@H](c3ccc4c(c3)OCO4)CN2CC(=O)Nc2c(CC)cccc2CC)cc1 | Membrane-associated tyrosine- and threonine-specific cdc2-inhibitory kinase (PKMYT1, Homo sapiens, UniProt Q99640) | cell-free assay, competition with immobilised ligand |  | 1 µM | remaining binding | 100% |

Excerpt of the above (series 1):
| Sequence | 4-mer enrichment [fold] |
| --- | --- |
| CGGU | 1.19 |
| CACU | 0.569 |
